Assay results from different studies.
Each line is one published result; not all experiments were run side by side. ± gives the spread as reported.
USP13 ZnF-UBD domain: Ubiquitin carboxyl-terminal hydrolase 13, ZnF-UBD domain (USP13, Homo sapiens, UniProt Q92995)
Sequence of UniProt Q92995 (whole entry, looked up): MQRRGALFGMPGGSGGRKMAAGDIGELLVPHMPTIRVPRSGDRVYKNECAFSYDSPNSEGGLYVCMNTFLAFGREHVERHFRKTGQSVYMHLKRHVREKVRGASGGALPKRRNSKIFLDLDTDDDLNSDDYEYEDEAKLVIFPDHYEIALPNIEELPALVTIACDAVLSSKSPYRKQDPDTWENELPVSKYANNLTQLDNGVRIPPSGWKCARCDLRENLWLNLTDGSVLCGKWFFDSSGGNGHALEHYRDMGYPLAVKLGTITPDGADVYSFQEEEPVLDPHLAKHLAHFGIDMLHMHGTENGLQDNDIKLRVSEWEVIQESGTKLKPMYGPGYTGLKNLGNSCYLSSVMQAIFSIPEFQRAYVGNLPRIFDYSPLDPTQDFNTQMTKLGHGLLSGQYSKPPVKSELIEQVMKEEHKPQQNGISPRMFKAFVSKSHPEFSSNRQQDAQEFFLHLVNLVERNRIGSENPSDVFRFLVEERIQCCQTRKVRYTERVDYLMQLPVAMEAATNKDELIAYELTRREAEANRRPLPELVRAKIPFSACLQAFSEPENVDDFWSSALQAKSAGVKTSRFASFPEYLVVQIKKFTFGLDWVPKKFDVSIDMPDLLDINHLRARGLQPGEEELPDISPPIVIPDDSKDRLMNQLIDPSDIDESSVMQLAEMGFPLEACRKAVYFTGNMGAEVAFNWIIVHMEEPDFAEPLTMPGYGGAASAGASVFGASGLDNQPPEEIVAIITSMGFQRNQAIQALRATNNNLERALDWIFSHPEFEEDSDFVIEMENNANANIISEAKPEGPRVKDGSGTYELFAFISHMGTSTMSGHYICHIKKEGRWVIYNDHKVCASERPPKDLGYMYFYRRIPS
MPO: Myeloperoxidase (MPO, Homo sapiens, UniProt P05164)
Sequence of UniProt P05164 (whole entry, looked up): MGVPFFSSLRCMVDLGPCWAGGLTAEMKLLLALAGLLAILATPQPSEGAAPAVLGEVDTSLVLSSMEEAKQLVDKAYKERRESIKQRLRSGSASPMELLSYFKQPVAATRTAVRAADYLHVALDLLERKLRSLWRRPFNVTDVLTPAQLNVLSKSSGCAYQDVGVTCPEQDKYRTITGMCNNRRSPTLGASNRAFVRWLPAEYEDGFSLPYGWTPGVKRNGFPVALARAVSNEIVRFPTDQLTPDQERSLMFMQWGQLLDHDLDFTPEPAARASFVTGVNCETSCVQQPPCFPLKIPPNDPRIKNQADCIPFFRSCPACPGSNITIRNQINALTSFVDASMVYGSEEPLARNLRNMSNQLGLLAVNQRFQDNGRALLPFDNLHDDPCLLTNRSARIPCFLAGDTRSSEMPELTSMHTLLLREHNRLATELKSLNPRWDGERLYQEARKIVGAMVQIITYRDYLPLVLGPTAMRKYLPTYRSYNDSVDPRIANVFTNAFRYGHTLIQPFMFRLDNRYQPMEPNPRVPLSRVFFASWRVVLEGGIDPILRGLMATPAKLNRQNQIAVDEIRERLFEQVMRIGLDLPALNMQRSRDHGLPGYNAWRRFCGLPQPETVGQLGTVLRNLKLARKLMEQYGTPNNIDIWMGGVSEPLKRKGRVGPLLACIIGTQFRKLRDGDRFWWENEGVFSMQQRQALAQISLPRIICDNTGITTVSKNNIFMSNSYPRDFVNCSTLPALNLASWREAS
rhlR: HTH-type quorum-sensing regulator RhlR (rhlR, Pseudomonas aeruginosa, UniProt P54292)
Sequence of UniProt P54292 (whole entry, looked up): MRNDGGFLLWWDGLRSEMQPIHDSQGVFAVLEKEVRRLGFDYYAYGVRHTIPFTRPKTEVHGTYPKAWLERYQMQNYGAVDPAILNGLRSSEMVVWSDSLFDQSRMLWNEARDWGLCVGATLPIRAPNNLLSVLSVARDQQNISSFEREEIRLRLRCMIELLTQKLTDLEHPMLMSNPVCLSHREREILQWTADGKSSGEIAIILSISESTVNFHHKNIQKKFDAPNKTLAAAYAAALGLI
STK3: Serine/threonine-protein kinase 3 (STK3, Homo sapiens, UniProt Q13188)
Sequence of UniProt Q13188 (whole entry, looked up): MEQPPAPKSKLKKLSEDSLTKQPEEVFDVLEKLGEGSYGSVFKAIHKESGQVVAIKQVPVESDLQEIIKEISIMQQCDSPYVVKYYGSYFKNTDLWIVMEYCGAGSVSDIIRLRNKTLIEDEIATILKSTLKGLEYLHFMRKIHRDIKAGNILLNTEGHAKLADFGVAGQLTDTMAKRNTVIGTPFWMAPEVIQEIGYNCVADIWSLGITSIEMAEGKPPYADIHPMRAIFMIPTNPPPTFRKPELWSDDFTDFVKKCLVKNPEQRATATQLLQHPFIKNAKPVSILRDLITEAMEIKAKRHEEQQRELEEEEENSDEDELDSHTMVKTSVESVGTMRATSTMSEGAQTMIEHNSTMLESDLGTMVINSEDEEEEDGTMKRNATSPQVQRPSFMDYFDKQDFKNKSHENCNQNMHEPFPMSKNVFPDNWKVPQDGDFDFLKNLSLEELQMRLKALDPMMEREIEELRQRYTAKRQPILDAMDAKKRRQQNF
MAP4K1: Mitogen-activated protein kinase kinase kinase kinase 1 (MAP4K1, Homo sapiens, UniProt Q92918)
Sequence of UniProt Q92918 (whole entry, looked up): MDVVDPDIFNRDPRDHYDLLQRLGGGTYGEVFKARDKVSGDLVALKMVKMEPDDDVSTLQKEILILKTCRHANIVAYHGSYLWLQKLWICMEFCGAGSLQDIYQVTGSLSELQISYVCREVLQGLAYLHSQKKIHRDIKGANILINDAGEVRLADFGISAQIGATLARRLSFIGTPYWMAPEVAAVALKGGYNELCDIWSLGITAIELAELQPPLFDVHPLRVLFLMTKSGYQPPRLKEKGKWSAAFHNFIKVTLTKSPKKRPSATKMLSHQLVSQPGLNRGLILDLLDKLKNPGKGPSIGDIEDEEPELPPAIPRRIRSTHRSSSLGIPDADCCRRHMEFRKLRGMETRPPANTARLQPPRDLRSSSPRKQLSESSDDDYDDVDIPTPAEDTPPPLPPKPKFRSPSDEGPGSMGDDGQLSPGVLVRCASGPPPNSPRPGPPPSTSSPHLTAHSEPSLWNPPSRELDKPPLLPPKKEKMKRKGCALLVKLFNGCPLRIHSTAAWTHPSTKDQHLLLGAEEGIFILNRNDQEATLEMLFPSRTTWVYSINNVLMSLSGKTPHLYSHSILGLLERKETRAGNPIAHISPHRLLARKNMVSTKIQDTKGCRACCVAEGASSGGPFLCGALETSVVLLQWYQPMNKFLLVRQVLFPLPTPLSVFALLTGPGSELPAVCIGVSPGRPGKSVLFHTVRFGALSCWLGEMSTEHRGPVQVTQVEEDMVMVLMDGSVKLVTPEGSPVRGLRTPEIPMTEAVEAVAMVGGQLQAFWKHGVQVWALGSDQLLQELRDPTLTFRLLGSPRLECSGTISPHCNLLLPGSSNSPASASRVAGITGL
FGFR4: Fibroblast growth factor receptor 4 (FGFR4, Homo sapiens, UniProt P22455)
Sequence of UniProt P22455 (whole entry, looked up): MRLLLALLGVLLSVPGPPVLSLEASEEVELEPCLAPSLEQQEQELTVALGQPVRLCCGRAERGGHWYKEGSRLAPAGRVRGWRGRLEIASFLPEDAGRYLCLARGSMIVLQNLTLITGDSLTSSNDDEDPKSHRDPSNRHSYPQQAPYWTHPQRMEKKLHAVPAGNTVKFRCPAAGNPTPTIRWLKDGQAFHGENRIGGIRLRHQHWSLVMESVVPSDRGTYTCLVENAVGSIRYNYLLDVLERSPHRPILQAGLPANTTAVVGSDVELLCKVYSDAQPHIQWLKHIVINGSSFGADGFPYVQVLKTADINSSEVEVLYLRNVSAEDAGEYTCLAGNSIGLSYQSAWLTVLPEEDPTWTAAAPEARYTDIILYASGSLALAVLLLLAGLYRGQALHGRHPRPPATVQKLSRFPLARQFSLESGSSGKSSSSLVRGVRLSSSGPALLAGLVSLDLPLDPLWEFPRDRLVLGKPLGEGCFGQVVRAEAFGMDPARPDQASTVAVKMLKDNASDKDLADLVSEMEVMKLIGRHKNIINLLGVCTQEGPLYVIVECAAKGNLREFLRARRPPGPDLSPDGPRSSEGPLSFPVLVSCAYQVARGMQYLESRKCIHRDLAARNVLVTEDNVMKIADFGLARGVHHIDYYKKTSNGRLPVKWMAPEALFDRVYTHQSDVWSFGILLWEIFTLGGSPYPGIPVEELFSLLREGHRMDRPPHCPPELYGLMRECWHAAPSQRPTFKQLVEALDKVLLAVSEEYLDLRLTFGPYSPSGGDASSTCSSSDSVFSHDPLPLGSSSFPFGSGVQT
Astl: Astacin-like metalloendopeptidase (Astl, Mus musculus, UniProt Q6HA09)
Sequence of UniProt Q6HA09 (whole entry, looked up): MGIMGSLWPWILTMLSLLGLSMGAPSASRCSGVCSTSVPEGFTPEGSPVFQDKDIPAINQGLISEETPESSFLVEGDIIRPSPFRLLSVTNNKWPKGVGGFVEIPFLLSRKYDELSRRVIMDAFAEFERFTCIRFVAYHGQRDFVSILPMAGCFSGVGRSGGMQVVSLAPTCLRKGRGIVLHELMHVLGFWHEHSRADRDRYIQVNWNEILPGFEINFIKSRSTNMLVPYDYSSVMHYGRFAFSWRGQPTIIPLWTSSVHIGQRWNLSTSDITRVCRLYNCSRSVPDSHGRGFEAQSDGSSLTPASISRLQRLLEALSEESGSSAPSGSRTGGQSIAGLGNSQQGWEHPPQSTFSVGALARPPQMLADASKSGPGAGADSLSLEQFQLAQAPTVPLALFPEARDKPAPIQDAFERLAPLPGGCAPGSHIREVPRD
Sequence of UniProt Q00536 (whole entry, looked up): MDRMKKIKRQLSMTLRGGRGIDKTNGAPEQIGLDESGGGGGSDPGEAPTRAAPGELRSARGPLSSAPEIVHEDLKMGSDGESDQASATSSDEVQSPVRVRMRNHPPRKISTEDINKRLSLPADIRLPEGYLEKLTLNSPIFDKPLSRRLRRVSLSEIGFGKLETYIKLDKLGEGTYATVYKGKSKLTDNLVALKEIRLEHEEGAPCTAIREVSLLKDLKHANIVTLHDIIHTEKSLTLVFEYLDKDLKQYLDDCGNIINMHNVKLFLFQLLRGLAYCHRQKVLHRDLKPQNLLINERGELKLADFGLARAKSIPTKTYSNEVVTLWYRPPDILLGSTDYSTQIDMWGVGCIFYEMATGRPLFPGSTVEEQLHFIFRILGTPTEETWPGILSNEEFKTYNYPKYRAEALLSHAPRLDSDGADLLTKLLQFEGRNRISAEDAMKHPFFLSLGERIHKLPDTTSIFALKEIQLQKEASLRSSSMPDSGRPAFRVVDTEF

Structure (SMILES) | target or system | assay | system | setting | scale | quantity | value
N#Cc1c2n(c3c(=O)n(CC(=O)O)cnc13)CCCC2 | USP13 ZnF-UBD domain |  |  |  |  | Kd | > 1000 µM
CC(C)OCCn1c(=S)[nH]c(=O)c2[nH]ccc21 | MPO | chlorination activity |  | 0.625 µM, 0.1 h, with: iodide, TMB |  | remaining activity | 53.6%
COc1cc(C#CC(O)c2ccccc2)ccc1O (centres unmarked) | rhlR | reporter gene, inhibitor, quorum sensing reporter strain |  | 10 µM, 1.5 h | relative to: DMSO | remaining activity | 60%
O=C(O)c1ccc(Nc2ncc3c(n2)-c2ccc(Cl)cc2C(c2c(F)cccc2F)=NC3)cc1 | GSK3ß(h) | kinase activity |  | 1 µM |  | remaining activity | 102%
COc1cc(F)ccc1-c1ncnc(Nc2cccc(C[S@](C)(=N)=O)c2)n1 | STK3 | kinase activity |  | 10 µM, with: 10 µM ATP |  | remaining activity | 97%
C=CC(=O)N1CCC[C@@H](n2nc(-c3ccc(Oc4ccccc4)cc3)c3c(N)ncnc32)C1 | MAP4K1 | kinase activity, inhibitor, HotSpot radiometric |  | 100 nM, with: ATP 10 µM |  | remaining activity | 87.3 ± 0.8%
CCOc1cc(N2CCN(C)CC2)ccc1Nc1nc(N)n(C(=O)NCc2ccccc2S(=O)(=O)C(C)C)n1 | FGFR4 | enzyme activity |  | 10 µM | relative to: control | remaining activity | 1%
COc1ccc(F)cc1C(=O)NCc1ccc(-c2nn([C@@H](C)C(F)(F)F)c(N)c2C(N)=O)cc1 | Cyclin-dependent kinase 16, with cyclin Y (CDK16, Homo sapiens, UniProt Q00536) | kinase activity, inhibitor, HotSpot radiometric |  | 1000 nM, with: ATP at Km |  | remaining activity | 102.6 ± 1%
O=C(CCN(Cc1ccc2c(c1)OCO2)Cc1ccc(Cl)cc1F)NO | Astl | enzyme activity, inhibitor, fluorogenic |  | 5 µM |  | remaining activity | 26 ± 4%
O=C1NC(=O)/C(=C/c2ccc(-c3ccc(F)cc3O)o2)S1 | STK3 | enzyme activity |  | 10 µM |  | remaining activity | 60%
OC(C#Cc1ccc(F)c(F)c1)c1cccc(Cl)c1 (centres unmarked) | rhlR | reporter gene, inhibitor, quorum sensing reporter strain |  | 10 µM, 1.5 h | relative to: DMSO | remaining activity | 59%
COc1cc(Nc2ncc3c(n2)-c2ccc(Cl)cc2C(c2c(F)cccc2OC)=NC3)ccc1C(=O)O | SRPK1 | kinase activity |  | 1 µM |  | remaining activity | 93%
COc1ccccc1C(=O)C#Cc1ccc(F)c(F)c1 | rhlR | reporter gene, inhibitor, quorum sensing reporter strain |  | 10 µM, 1.5 h | relative to: DMSO | remaining activity | 50%
Nc1ncnc2c1ncn2C1OC(CSCCNCc2cccc(-c3ccccc3)c2)C(O)C1O (centres unmarked) | RNA N(6)-adenosine-methyltransferase METTL16 (METTL16, Homo sapiens, UniProt Q86W50) |  |  | 10 µM |  | remaining activity | 90.7%
O=C(NC1CCC1)c1ccc2nc(-c3cccc(NS(=O)(=O)NCCN4CCCCC4)c3)cn2c1 | ABL1 (Homo sapiens, UniProt P00519, E255K) | enzyme activity |  | 10 µM |  | remaining activity | 100%
C=CC(=O)N1CCC[C@@H](n2nc(-c3ccc(Oc4ccccc4)cc3)c3c(N)ncnc32)C1 | EPHB3 (Homo sapiens, UniProt P54753) |  |  | 1 µM |  | remaining activity | 142%

Structure (SMILES) | target or system | assay | system | setting | scale | quantity | value
Nc1ncc2c(n1)-c1c([nH]c3ccc(-c4ccc(F)cc4)cc13)CCC2 | TTBK2 (Homo sapiens, UniProt Q6IQ55) | kinase activity, inhibitor, radiometric |  | 1 µM, with: ATP at Km |  | remaining activity | 81%
COc1cc(C#CC(=O)CC(C)C)ccc1O | rhlR | reporter gene, inhibitor, quorum sensing reporter strain |  | 10 µM, 1.5 h | relative to: DMSO | remaining activity | 81%
Cn1cc(-c2ccc(-c3cncc(Cl)c3N3CCC4(CCNC4=O)CC3)cc2)cn1 | COLO 205 | gene expression, microarray, item: GLS mRNA |  | concentration not given, 2 h | relative to: untreated cells | log2 fold change | 2.03
c1cnc2ccc(Nc3nc(NC4CC4)c4nc[nH]c4n3)cc2c1 | FGFR4 | kinase activity, inhibitor, SelectScreen kinase profiling |  | 1 µM | relative to: control | remaining activity | 87%
COc1cc(C#CC(=O)c2ccccc2OC)ccc1O | rhlR | reporter gene, inhibitor, quorum sensing reporter strain |  | 10 µM, 1.5 h | relative to: DMSO | remaining activity | 52%
CC[C@@H]1[C@H](F)C(=O)N[C@@H]1COc1nccc2cc(C(N)=O)c(OC)cc12 | STK16 (Homo sapiens, UniProt O75716) | ATP-site probe binding, ActivX profiling | THP-1 cell lysate | Lys1 site |  | IC50 | 0.66 µM
COc1cc(C#CC(O)c2ccccc2OC)ccc1O (centres unmarked) | rhlR | reporter gene, inhibitor, quorum sensing reporter strain |  | 10 µM, 1.5 h | relative to: DMSO | remaining activity | 56%
NC/C(=C\F)COc1cccc(Cn2c(=S)[nH]c(=O)c3[nH]cnc32)c1 | MPO | LDL lipid peroxidation, inhibitor, cholesteryl ester hydroperoxide |  | 0.0556 µM |  | remaining activity | 26.5%
Cc1ccc(C(=O)O)cc1S(=O)(=O)Nc1cccc(C(=O)CCC(=O)O)c1 | USP13 ZnF-UBD domain |  |  |  |  | Kd | > 1000 µM
COc1cc(C#CC(O)CC(C)C)ccc1O (centres unmarked) | rhlR | reporter gene, inhibitor, quorum sensing reporter strain |  | 10 µM, 1.5 h | relative to: DMSO | remaining activity | 83%
CC(C)Oc1cc(N2CCN(C)CC2)ccc1Nc1nc(N)n(C(=O)NCc2ccccc2S(=O)(=O)C(C)C)n1 | FGFR4 | enzyme activity |  | 10 µM | relative to: control | remaining activity | 20%
O=C(CCN(Cc1ccncc1)Cc1ccc(Cl)c(O)c1F)NO | Astl | enzyme activity, inhibitor, fluorogenic |  | 0.25 µM |  | remaining activity | 77 ± 7%
COc1cc(-c2cncc3c2CN(C)Cc2cc(N4CCNCC4)ccc2-3)cc(OC)c1OC | MAP4K1 | kinase activity |  | 1 µM, human enzyme, with: ATP 10 µM | relative to: DMSO control | remaining activity | 109%
O=C(CCN(Cc1ccc2c(c1)OCO2)Cc1ccc(Cl)c(O)c1F)NO | Astl | enzyme activity, inhibitor, fluorogenic |  | 5 µM |  | remaining activity | 14 ± 3%
CC#CC(=O)N1CCC[C@H]1c1nc(-c2ccc(C(=O)Nc3ccccn3)cc2)c2c(N)nccn12 | MAP4K1 | kinase activity, inhibitor, HotSpot radiometric |  | 100 nM, with: ATP 10 µM |  | remaining activity | 95.7 ± 2%
CCCC(=O)C#Cc1ccc(O)c(OC)c1 | rhlR | reporter gene, inhibitor, quorum sensing reporter strain |  | 10 µM, 1.5 h | relative to: DMSO | remaining activity | 76%

Some of these lines once more:
Structure (SMILES) | target or system | assay | system | setting | scale | quantity | value
O=C(CCN(Cc1ccc2c(c1)OCO2)Cc1ccc(Cl)cc1F)NO | Astl | enzyme activity, inhibitor, fluorogenic |  | 5 µM |  | remaining activity | 26 ± 4%
CC(C)Oc1cc(N2CCN(C)CC2)ccc1Nc1nc(N)n(C(=O)NCc2ccccc2S(=O)(=O)C(C)C)n1 | FGFR4 | enzyme activity |  | 10 µM | relative to: control | remaining activity | 20%
CC(C)OCCn1c(=S)[nH]c(=O)c2[nH]ccc21 | MPO | chlorination activity |  | 0.625 µM, 0.1 h, with: iodide, TMB |  | remaining activity | 53.6%
NC/C(=C\F)COc1cccc(Cn2c(=S)[nH]c(=O)c3[nH]cnc32)c1 | MPO | LDL lipid peroxidation, inhibitor, cholesteryl ester hydroperoxide |  | 0.0556 µM |  | remaining activity | 26.5%
